Published values collected from several papers.
Protocols differ between the studies behind these lines. “And” joins repeats or separate records; there may be more than shown. ± marks the error that the study gave. ≈ marks a conversion by molar mass, not a printed value.

| Compound | assay | test system | setting | scale | quantity | result |
| --- | --- | --- | --- | --- | --- | --- |
| COc1cc(OC)cc(N(CCNC(C)C)c2ccc3ncc(-c4cnn(C)c4)nc3c2)c1 | – | – | – | – | pKa1 | 9.2 |
| C[Si](C)(C)O[Si](C)(C)O[Si](C)(C)C | – | – | – | – | slope B, log KAW vs 1/T | -2060 |
| CCn1cc(C(=O)N2CCOCC2)c(=O)c2cc(NC3Cc4ccccc4C3)cnc21 | – | human female, fed, plasma | oral, 900 mg twice daily, day 1, tablet, arithmetic mean | – | half-life | 4.55 h |
| Cc1cc(/C=C2\Sc3ccccc3N2CCCN2CCC(C)CC2)c2ccccc2[n+]1C | – | human erythrocytes, 2% | 32 x MIC (S. aureus ATCC 29213), 1 h | – | hemolysis | < 5% |
| C[C@@H](Oc1ccc(S(C)(=O)=O)cc1C(=O)N1C[C@@H]2C[C@]2(c2cc(C(F)(F)F)on2)C1)C(F)(F)F | – | human | oral plus intravenous microtracer, dose not given | – | subjects with related adverse events | 33.3% |
| Cl.[2H]C([2H])([2H])CC(=O)c1cnc(NC(=O)C2CC2)cc1Nc1cccc(-c2ncn(C([2H])([2H])[2H])n2)c1OC | median | human | oral, 20 mg twice daily, day 7, fed, liquid, multiple dose | – | Tmax | 1.62 h |
| COc1ncc(-c2nc3c(n2C(C)C)[C@H](c2ccc(Cl)cc2)N(c2cc(Cl)cn(C)c2=O)C3=O)c(OC)n1 | – | human patients, plasma | oral, 45 mg, low-dose arm, cycle 2 day 1 | – | median half-life | 13.5 h |
| CC(C)Oc1c(NC(=O)c2ccc(NC(=O)[C@H](CC(N)=O)NC(=O)c3cc(F)c(/N=N/c4c(F)cccc4F)c(F)c3)cc2)ccc(C(=O)N/N=C/c2ccc(C(=O)O)s2)c1O | absorbance | DMSO | 40 °C, PSS to ground state relaxation | – | thermal half-life | 3.8 h |
| O=C1CCCCN1c1ccc(CO[C@@H]2COc3nc([N+](=O)[O-])cn3C2)cc1F | – | aqueous buffer | pH 7.4 | – | aqueous solubility | 31 µg/mL (≈ 79.4 µM) |
| CN(C)C(=N)N=C(N)N | item: any adverse event | healthy men | oral, dose not given, 8 days, treatment-emergent, crossover trial | – | subjects with adverse event | 40.9% |
| C[C@@H](N)C1CCN(S(=O)(=O)c2cccc3cnccc23)CC1 | – | healthy volunteers | 250 mg, 2 h, standing | – | pulse rate increase | 21.6 beats/min |
| C[C@@H]1[C@H](O)[C@@H](C)/C=C/C=C/C=C/C=C/C=C/C=C/C=C/[C@H](O[C@@H]2O[C@H](C)[C@@H](O)[C@H](N)[C@@H]2O)C[C@@H]2O[C@](O)(C[C@@H](O)C[C@@H](O)[C@H](O)CC[C@@H](O)C[C@@H](O)CC(=O)O[C@H]1C)C[C@H](O)[C@H]2C(=O)O | – | human blood | 500 µg/mL, 48 h, DMSO solvent | – | hemolysis | 17.1% and 18.7% and 19.5% |
| C[C@H](CCC(=O)NCCS(=O)(=O)O)[C@H]1CC[C@H]2[C@@H]3[C@H](O)C[C@@H]4C[C@H](O)CC[C@]4(C)[C@H]3C[C@H](O)[C@]12C | – | human, plasma | endogenous control diurnal | baseline: daily mean concentration | relative peak deviation | 114 ± 13% |
| COc1ccc([C@@H](O)c2cc(-c3ncnc4cc(N5CCOCC5)ccc34)c(F)cc2Cl)nn1 | – | locally advanced rectal cancer patients | 150 mg, added: capecitabine and radiotherapy | – | blood lymphatic disorder TEAE | 33% |
| CCc1cc(C(=O)NC)c2nccc(N3CCc4c(cc(Cn5ccnc5)cc4-c4cn(C)nc4C(F)(F)F)C3=O)c2c1 | – | Sprague Dawley rat | oral, 100 mg/kg once daily, day 5, 7-day toxicology study | baseline: day 1 | body weight change | 12.2% |
| Cc1cc(-c2nccc3c2ccn3CC(=O)Nc2ccc(-c3cnccn3)cn2)ccn1 | – | human | 15 mg once daily, multiple ascending dose | – | nervous system disorders | 33.3% |
| CCN1/C(=C/C(C)=O)Sc2ccc(F)cc21 | – | cynomolgus monkey | oral, 100 mg/kg, 2 h post-dose | – | systolic blood pressure | 110 ± 5 mmHg |
| COc1cc(N2CCC3(CCN(C)CC3)CC2)ccc1Nc1ncc(Cl)c(Nc2ccccc2P(C)(C)=O)n1 | population PK model | human | oral, final model without outliers | – | V2/F | 295 L |
| O=C(c1cccnc1-c1ccncc1)N1CCC(O)(Cc2ccccc2)CC1 | – | healthy Japanese adults, plasma | oral, 1200 mg single dose | – | terminal half-life | 5.08 h |
| CN[C@H](CC(C)C)C(=O)N[C@H]1C(=O)N[C@@H](CC(N)=O)C(=O)N[C@H]2C(=O)N[C@H]3C(=O)N[C@H](C(=O)N[C@H](C(=O)O)c4cc(O)cc(O)c4-c4cc3ccc4O)[C@H](O)c3ccc(c(Cl)c3)Oc3cc2cc(c3O[C@@H]2O[C@H](CO)[C@@H](O)[C@H](O)[C@H]2O[C@H]2C[C@](C)(N)[C@H](O)[C@H](C)O2)Oc2ccc(cc2Cl)[C@H]1O | Welch's t-test | C57BL/6N mice, faeces | oral, 1 vs 20 mg/mL | baseline: high dose over low dose | dose-normalised Cmax | no effect |
| C=CC[C@@H]1/C=C(\C)C[C@H](C)C[C@H](OC)[C@H]2O[C@@](O)(C(=O)C(=O)N3CCCC[C@H]3C(=O)O[C@H](/C(C)=C/[C@@H]3CC[C@@H](O)[C@H](OC)C3)[C@H](C)[C@@H](O)CC1=O)[C@H](C)C[C@@H]2OC | – | kidney transplant recipients, CYP3A5*1 carriers, whole blood | oral, dose not given, limited sampling | – | dose-normalized AUC(0-12h) | 94.4 ng·h/mL |
| OC[C@H]1O[C@@H](c2ccc(Cl)c(Cc3ccc(O[C@H]4CCOC4)cc3)c2)[C@H](O)[C@@H](O)[C@@H]1O | – | Japanese type 1 diabetes patients, blood | 2.5 mg, day 28 | baseline: baseline | change in Chloride | 0 mEq/L |
| CC(C)(C(=O)N1CCOc2c(C#N)cncc2C1)C(F)F | item: renal and urinary disorders | human, both sexes | oral, 10 mg once daily, 14 days, multiple ascending dose | – | subjects with TEAE | 12.5% |
| CNCc1ccc(-c2[nH]c3cc(F)cc4c3c2CCNC4=O)cc1 | – | human patients | oral, 600 mg twice daily, grade 4 | – | dizziness incidence | 0% |
| O=C(O)CCC(=O)O.[2H]C([2H])([2H])Oc1cc(C)c2[nH]ccc2c1CN1CC[C@@H](C2CC2)C[C@H]1c1ccc(C(=O)O)cc1 | – | human, plasma | 100 mg twice daily, day 1, multiple ascending dose, geometric mean | – | Cmax | 1790 ng/mL |
| CCOCc1nc(O)c(-c2nnc(Cc3ccc(Cl)cn3)o2)c(O)c1-c1c(OC)cccc1OC | – | anaesthetized rats, plasma | intravenous infusion, 10 µg/kg/min for 15 min, 20 min washout | – | plasma concentration | 982 ± 41 nM |
| Cc1nc(-c2ccc(OCC(C)C)c(C#N)c2)sc1C(=O)O | – | KM mouse, chronic hyperuricaemia model | dose not given, day 10 | – | body weight | 33.2 g and 35 g and 31.9 g and 29.5 g and 28.7 g and 28.2 g |
| CNCCOC12CC3(C)CC(C)(CC(Cn4ncc(-c5ccc(N6CCc7cccc(C(=O)Nc8nc9ccccc9s8)c7C6)nc5C(=O)O)c4C)(C3)C1)C2 | – | beagle dog, male, anaesthetised | intravenous bolus, 0.03 mg/kg, 210 min | baseline: baseline | heart rate change | 0% |

For quick reference, copied from above:
| Compound | assay | test system | setting | scale | quantity | result |
| --- | --- | --- | --- | --- | --- | --- |
| Cl.[2H]C([2H])([2H])CC(=O)c1cnc(NC(=O)C2CC2)cc1Nc1cccc(-c2ncn(C([2H])([2H])[2H])n2)c1OC | median | human | oral, 20 mg twice daily, day 7, fed, liquid, multiple dose | – | Tmax | 1.62 h |
| C[C@@H]1[C@H](O)[C@@H](C)/C=C/C=C/C=C/C=C/C=C/C=C/C=C/[C@H](O[C@@H]2O[C@H](C)[C@@H](O)[C@H](N)[C@@H]2O)C[C@@H]2O[C@](O)(C[C@@H](O)C[C@@H](O)[C@H](O)CC[C@@H](O)C[C@@H](O)CC(=O)O[C@H]1C)C[C@H](O)[C@H]2C(=O)O | – | human blood | 500 µg/mL, 48 h, DMSO solvent | – | hemolysis | 17.1% and 18.7% and 19.5% |
| CN[C@H](CC(C)C)C(=O)N[C@H]1C(=O)N[C@@H](CC(N)=O)C(=O)N[C@H]2C(=O)N[C@H]3C(=O)N[C@H](C(=O)N[C@H](C(=O)O)c4cc(O)cc(O)c4-c4cc3ccc4O)[C@H](O)c3ccc(c(Cl)c3)Oc3cc2cc(c3O[C@@H]2O[C@H](CO)[C@@H](O)[C@H](O)[C@H]2O[C@H]2C[C@](C)(N)[C@H](O)[C@H](C)O2)Oc2ccc(cc2Cl)[C@H]1O | Welch's t-test | C57BL/6N mice, faeces | oral, 1 vs 20 mg/mL | baseline: high dose over low dose | dose-normalised Cmax | no effect |
